Experimental data gathered from unrelated publications.
Protocols differ between the studies behind these lines. ± gives the spread as reported.
Formate-nitrite transporter: Formate-nitrite transporter (Plasmodium falciparum, UniProt O77389)
UniProt O77389, sequence (whole entry, looked up): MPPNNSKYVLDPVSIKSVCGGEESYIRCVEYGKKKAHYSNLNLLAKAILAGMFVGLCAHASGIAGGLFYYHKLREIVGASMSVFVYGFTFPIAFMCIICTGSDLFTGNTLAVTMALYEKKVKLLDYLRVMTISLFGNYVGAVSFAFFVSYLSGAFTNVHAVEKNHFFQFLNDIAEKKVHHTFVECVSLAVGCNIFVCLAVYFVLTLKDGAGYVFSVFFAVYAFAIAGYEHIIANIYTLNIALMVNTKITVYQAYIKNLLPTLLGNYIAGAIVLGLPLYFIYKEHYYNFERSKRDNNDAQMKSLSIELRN
SIRT5: NAD-dependent protein deacylase sirtuin-5, mitochondrial (SIRT5, Homo sapiens, UniProt Q9NXA8)
UniProt Q9NXA8, sequence (whole entry, looked up): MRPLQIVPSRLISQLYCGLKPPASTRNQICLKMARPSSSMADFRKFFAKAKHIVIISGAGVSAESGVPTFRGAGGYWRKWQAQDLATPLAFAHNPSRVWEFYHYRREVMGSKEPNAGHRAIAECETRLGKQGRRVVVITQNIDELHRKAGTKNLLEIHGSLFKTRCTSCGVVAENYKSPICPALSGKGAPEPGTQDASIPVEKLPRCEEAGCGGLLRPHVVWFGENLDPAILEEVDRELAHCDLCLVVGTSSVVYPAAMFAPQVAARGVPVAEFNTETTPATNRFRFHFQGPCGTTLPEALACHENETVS
lasR: Transcriptional activator protein LasR (lasR, Pseudomonas aeruginosa, UniProt P25084)
UniProt P25084, sequence (whole entry, looked up): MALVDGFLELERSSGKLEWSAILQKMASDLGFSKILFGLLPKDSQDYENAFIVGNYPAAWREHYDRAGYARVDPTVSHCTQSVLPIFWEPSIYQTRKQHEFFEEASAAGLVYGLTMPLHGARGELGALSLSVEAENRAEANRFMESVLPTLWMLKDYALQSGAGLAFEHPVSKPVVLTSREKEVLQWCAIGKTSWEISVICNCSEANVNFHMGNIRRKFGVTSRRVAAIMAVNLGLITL
blaNDM-1: Metallo-beta-lactamase type 2 (blaNDM-1, Klebsiella pneumoniae, UniProt C7C422)
UniProt C7C422, sequence (whole entry, looked up): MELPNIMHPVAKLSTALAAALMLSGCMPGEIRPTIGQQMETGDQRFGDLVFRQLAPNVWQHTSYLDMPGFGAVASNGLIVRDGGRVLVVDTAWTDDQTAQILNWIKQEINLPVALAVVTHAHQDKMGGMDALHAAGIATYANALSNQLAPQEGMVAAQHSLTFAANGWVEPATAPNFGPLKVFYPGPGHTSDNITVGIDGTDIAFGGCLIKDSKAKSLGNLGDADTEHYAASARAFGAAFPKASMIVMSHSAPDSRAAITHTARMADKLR
UniProt Q8BZ39, sequence (whole entry, looked up): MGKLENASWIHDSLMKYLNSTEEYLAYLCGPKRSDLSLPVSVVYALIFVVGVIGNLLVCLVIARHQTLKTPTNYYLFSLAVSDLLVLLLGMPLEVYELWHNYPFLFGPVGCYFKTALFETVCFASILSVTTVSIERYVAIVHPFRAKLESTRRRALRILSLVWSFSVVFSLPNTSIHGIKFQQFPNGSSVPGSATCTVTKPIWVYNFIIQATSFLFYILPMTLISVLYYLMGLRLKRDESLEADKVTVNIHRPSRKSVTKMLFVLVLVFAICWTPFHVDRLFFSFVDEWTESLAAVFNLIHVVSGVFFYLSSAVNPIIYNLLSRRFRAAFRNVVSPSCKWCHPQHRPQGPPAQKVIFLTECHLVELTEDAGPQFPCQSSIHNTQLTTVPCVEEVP
UniProt Q86U44, sequence (whole entry, looked up): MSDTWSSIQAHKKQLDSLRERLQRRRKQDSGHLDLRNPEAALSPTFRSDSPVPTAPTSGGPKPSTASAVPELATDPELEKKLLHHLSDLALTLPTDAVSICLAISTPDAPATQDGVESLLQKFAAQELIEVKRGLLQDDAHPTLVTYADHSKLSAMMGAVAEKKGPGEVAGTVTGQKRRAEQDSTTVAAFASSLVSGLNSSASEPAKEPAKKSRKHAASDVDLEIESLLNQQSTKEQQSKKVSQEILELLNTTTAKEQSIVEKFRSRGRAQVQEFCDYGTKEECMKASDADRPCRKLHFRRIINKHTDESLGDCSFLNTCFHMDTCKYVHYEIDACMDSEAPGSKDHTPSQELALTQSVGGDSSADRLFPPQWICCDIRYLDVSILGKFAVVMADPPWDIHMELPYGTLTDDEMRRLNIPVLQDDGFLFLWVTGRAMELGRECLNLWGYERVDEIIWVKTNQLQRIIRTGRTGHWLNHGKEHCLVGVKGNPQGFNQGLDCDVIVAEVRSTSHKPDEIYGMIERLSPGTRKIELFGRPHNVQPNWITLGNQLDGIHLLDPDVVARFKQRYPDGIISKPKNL
UniProt P0A6M2, sequence (whole entry, unmodified, looked up): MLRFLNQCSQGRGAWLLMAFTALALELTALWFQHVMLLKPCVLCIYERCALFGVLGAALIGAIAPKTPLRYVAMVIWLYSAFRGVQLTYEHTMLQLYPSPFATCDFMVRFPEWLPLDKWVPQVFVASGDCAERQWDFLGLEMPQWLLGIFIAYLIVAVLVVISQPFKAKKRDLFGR
UniProt P27487, sequence (whole entry, looked up): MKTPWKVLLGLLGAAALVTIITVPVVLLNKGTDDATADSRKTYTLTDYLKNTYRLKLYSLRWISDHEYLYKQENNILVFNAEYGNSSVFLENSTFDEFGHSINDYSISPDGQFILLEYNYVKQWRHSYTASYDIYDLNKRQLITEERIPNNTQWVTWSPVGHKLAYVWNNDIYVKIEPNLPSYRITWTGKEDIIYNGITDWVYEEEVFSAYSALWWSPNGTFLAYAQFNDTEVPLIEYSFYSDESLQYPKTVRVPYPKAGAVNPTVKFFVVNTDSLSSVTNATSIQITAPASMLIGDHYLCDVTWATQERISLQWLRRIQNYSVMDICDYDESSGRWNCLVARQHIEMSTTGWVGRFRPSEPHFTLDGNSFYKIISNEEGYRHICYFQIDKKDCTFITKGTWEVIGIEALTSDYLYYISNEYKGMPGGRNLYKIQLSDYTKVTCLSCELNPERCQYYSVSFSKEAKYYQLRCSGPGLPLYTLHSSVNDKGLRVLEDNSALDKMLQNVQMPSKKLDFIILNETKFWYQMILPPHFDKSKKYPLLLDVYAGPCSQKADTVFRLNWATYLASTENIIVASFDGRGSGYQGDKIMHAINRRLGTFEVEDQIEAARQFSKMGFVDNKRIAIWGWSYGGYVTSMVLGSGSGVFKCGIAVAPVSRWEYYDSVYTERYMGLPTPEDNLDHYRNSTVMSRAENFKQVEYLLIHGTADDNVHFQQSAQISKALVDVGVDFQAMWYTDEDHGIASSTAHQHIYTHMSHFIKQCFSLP
UniProt Q9QUR6, sequence (whole entry, looked up): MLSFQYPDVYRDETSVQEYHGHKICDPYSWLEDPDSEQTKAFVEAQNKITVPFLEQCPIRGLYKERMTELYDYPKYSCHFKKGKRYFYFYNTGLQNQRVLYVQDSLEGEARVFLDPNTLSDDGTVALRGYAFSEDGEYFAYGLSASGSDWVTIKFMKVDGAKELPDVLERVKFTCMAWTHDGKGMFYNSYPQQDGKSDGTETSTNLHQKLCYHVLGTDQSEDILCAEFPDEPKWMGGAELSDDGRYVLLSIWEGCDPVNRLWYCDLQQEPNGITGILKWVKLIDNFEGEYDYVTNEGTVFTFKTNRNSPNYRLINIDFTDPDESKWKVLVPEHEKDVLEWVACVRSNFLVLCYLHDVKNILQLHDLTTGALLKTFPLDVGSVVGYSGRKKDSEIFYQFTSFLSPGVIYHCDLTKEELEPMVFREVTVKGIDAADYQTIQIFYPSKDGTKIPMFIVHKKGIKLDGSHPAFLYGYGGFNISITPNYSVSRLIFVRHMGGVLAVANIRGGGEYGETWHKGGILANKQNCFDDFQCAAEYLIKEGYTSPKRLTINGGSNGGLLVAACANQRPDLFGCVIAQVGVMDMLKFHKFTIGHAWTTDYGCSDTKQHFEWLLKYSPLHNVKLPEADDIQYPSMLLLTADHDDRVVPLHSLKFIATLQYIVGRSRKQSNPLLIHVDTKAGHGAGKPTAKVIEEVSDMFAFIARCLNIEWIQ
UniProt P11712, sequence (whole entry, looked up): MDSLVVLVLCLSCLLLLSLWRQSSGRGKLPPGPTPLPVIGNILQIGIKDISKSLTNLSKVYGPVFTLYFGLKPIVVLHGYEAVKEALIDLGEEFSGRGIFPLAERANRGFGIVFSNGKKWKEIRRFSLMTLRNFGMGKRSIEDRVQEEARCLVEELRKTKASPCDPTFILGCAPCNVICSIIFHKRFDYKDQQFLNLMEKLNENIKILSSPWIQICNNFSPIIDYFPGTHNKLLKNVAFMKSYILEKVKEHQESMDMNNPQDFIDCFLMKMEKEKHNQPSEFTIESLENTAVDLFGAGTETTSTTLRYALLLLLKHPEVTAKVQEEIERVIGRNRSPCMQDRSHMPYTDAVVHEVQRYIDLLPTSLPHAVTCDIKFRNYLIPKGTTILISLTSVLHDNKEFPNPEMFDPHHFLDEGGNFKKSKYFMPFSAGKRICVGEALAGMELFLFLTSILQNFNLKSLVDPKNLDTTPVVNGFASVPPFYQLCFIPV
UniProt Q99436, sequence (whole entry, looked up): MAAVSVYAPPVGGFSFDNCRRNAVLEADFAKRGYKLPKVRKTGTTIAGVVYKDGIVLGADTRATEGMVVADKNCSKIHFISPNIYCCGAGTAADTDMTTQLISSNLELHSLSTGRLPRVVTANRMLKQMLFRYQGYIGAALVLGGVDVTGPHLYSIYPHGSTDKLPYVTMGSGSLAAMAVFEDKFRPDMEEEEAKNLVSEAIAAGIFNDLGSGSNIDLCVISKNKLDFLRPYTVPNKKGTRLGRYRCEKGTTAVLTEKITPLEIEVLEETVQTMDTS
UniProt P61073, sequence (whole entry, looked up): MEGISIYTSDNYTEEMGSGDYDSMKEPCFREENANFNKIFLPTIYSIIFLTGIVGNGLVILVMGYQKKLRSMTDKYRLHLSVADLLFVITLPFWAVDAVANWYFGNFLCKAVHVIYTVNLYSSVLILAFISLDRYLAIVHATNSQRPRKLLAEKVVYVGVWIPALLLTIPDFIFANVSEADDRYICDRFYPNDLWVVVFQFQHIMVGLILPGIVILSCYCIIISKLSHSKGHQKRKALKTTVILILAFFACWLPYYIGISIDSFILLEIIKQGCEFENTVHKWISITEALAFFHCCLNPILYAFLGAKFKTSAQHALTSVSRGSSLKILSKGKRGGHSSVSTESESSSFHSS

CSCC[C@H](NC(=O)[C@@H](N)CCCNC(=N)N)C(=O)N[C@@H](CO)C(=O)N[C@@H](C)C(=O)N1CCC[C@H]1C(=O)N[C@@H](CO)C(=O)N[C@H](C(=O)NCC(=O)NCC(=O)N[C@H](C(=O)O)C(C)C)[C@@H](C)O  IC50 (HLA class I histocompatibility antigen, A alpha chain, allele A*02:02 (Homo sapiens, UniProt P04439); binding): 29.4 µM
O=c1c(N2CCCC2)c(Cl)cnn1-c1ccccc1  IC50 (Disulfide bond formation protein B (Escherichia coli, UniProt P0A6M2, C49V/C8A); enzyme activity, inhibitor): 7.16 to 9.71 µM
Cc1nc(N2CCC(N(C)c3cc(C(=O)NCCN4CCCC4)cnn3)CC2)nc(C)c1CC(C)C  IC50 (Cytochrome P450 2C8 (CYP2C8, Homo sapiens, UniProt P10632); enzyme activity, inhibitor): > 30 µM
O=C(C=C(O)C(F)(F)C(F)(F)F)c1cccnc1  IC50 (Formate-nitrite transporter; L-lactate transport, inhibitor, fluorescence; yeast; pH 6.8, added: L-lactate 1 mM): 0.095 ± 0.003 µM
N=C(N)NCCC[C@H](NC(=O)[C@H](CCCCNC(=O)c1cncc(OS(=O)(=O)F)c1)NS(=O)(=O)c1cccc(F)c1)C(=O)NC1CCC1  IC50 (SIRT5; inhibitor, fluorogenic; pre-incubation 24 h, added: NAD+ 500 µM): 6.1 ± 0.3 µM
CSCC[C@H](NC(=O)[C@@H](NC(=O)[C@H](Cc1c[nH]cn1)NC(=O)CNC(=O)[C@H](Cc1c[nH]cn1)NC(=O)[C@@H]1CCCN1C(=O)[C@H](C)N)C(C)C)C(=O)N[C@H](C(=O)N[C@@H](CCC(=O)O)C(=O)N[C@@H](CC(C)C)C(=O)O)C(C)C  IC50 (HLA class I histocompatibility antigen, A alpha chain, allele A*02:01 (Homo sapiens, UniProt P04439); peptide-MHC binding, radioligand competition binding): > 70 µM
COc1cc(C[C@H](C)[C@H](C)Cc2ccc3c(c2)OCO3)ccc1O  IC50 (Prolyl endopeptidase (Mus musculus, UniProt Q9QUR6); enzyme activity, inhibitor, fluorescence): > 100 µM
CCCCCCCCCCCCCCCCCC(=O)NC[C@H]1CC[C@H](C(=O)N[C@@H](CCC(=O)NCCCOCCOCCOCCCNC(=O)COCC(=O)N[C@@H](Cc2ccc(O)cc2)C(=O)NC(C)(Cc2ccccc2)C(=O)N[C@@H](CC(C)C)C(=O)N[C@@H](CCCC)C(=O)N[C@@H](CCCNC(=N)N)C(=O)N2CCC[C@H]2C(=O)N[C@@H](CCCNC(=N)NC)C(=O)N[C@@H](CC(N)=O)C(N)=O)C(=O)O)CC1 (some centres unmarked)  IC50 (Neuromedin-U receptor 2 (Mus musculus, UniProt Q8BZ39); ligand displacement, radioligand; cell membranes): 0.00026 µM
N[C@H](C(=O)N1CCCC1)C1CCN(c2nccc3c(-c4ncc(Cl)cc4Cl)cccc23)CC1  IC50 (PADI2 (Homo sapiens, UniProt Q9Y2J8); enzyme activity, inhibitor, GDH-coupled; added: CaCl2 1.5 mM): 3.09 µM
CCN(C)C(=O)Oc1ccccc1/C=C1\Cc2cc(OC)c(OC)cc2C1=O  IC50 (DPP4 (Homo sapiens, UniProt P27487); enzyme activity, inhibitor; human serum; added: GP-BAN substrate): > 10 µM
C#CCNC(=O)c1ccc(S(=O)(=O)N[C@@H](CCCCNC(C)=S)C(=O)N[C@@H](CCCNC(=N)N)C(=O)N[C@@H](CC2CCCCC2)C(=O)N[C@H](CCCCN)C(=O)N[C@@H](CC2CCCCC2)C(N)=O)cc1  IC50 (SIRT2 (Homo sapiens, UniProt Q8IXJ6); enzyme activity, inhibitor, fluorescence): 1.62 µM
C=C1NC(=O)c2csc(n2)[C@H]([C@@H](C)O)NC(=O)[C@H](C)NC(=O)[C@H]([C@@H](C)CC)NC(=O)[C@H](CCCNC(=N)N)NC(=O)CNC(=O)[C@H](CCCNC(=N)N)NC(=O)[C@H]([C@@H](C)O)NC(=O)[C@H](CCCNC(=N)N)NC(=O)[C@H]([C@@H](C)CC)NC(=O)[C@H]([C@@H](C)O)NC(=O)[C@H](Cc2c[nH]c3ccccc23)NC(=O)c2ccc(-c3nc(C(=O)OC)cs3)nc2-c2csc1n2  IC50 (STK4 (Homo sapiens, UniProt Q13043); enzyme activity, inhibitor, ADP detection): 0.12 µM
CCCCCCCCCC(=O)CC(=O)NC1CCCCC1=O (centres unmarked)  IC50 (lasR; reporter gene, antagonist; Escherichia coli, JLD271 with LasR plasmid; added: OdDHL 2 nM): no inhibition
O=C(C=C(O)C(F)(F)C(F)(F)Cl)c1cccnc1  IC50 (Formate-nitrite transporter; L-lactate transport, inhibitor, fluorescence; yeast; pH 6.8, added: L-lactate 1 mM): 0.062 ± 0.007 µM
N=C(N)NCCC[C@H](NC(=O)[C@H](CCCCNC(=O)c1cncc(OS(=O)(=O)F)c1)NC(=O)CCC[P+](c1ccccc1)(c1ccccc1)c1ccccc1)C(=O)NC1CCC1  IC50 (SIRT5; inhibitor, fluorogenic; pre-incubation 16 h, added: NAD+ 500 µM): 10.9 ± 0.2 µM
CC[C@H](C)[C@@H]1NC(=O)[C@@H]2CCCN2C(=O)[C@@H](CS)NC(=O)[C@H](Cc2ccc(O)cc2)NC(=O)[C@@H](CCCNC(=N)N)NC(=O)[C@@H]([C@H](C)O)NC(=O)[C@H](CCC(=O)O)NC(=O)[C@@H]2CCCN2C1=O  IC50 (blaNDM-1; enzyme activity, inhibitor, absorbance): 7.38 µM
CC(C)C[C@@H](N)C(=O)NCC(=O)N[C@H](C)C(=O)N[C@H](CO)C(=O)N[C@H](Cc1c[nH]c2ccccc12)C(=O)N[C@H](Cc1c[nH]cn1)C(=O)N[C@H](CCCNC(=N)N)C(=O)N1CCC[C@@H]1C(=O)N[C@H](CC(=O)O)C(=O)N[C@H](CCCCN)C(=O)N[C@H](CCCCN)C(=O)N[C@H](CCCNC(=N)N)C(=O)NCCCCCC(=O)N[C@H](CCCCN)C(=O)N[C@H](CCCNC(=N)N)C(=O)N[C@H](CCCCN)C(=O)N[C@H](CCC(N)=O)C(=O)N[C@H](CCCNC(=N)N)C(=O)NCC(=O)N1CCC[C@@H]1C(=O)NCC(=O)N[C@H](CCCNC(=N)N)C(=O)N[C@H](C)C(=O)N[C@H](Cc1ccccc1)C(N)=O  IC50 (CXCR4 (Homo sapiens, UniProt P61073); antagonist; concentration not given): 0.0434 µM
CC(C)Nc1ccc(C(=O)C=C(O)C(F)(F)C(F)(F)F)cn1  IC50 (Formate-nitrite transporter; L-lactate transport, inhibitor, fluorescence; yeast; pH 6.8, added: L-lactate 1 mM): 0.117 ± 0.008 µM
CC[C@H](C)[C@@H]1NC(=O)[C@@H](CCCCN)NC(=O)[C@H](CC(=O)O)NC(=O)[C@H]2CCCN2C(=O)[C@@H](CCC(N)=O)NC(=O)[C@H](C(C)C)NC(=O)[C@@H]2CCCN2C(=O)[C@@H](CS)NC1=O  IC50 (blaNDM-1; enzyme activity, inhibitor, absorbance): 11.5 µM
CCCCCC(=O)CC(=O)N[C@H]1CCOC1=O  IC50 (lasR; reporter gene, antagonist; Escherichia coli, JLD271 with LasR plasmid; added: OdDHL 50 nM): 2.9 µM
CN(C)C(=O)[C@@H](NC(=O)c1cc(-c2ccnn2C)ccc1-c1ccc(C(F)(F)F)cc1)c1cccc(C(F)(F)F)c1  IC50 (NKG2-D type II integral membrane protein, with MICB (KLRK1, Homo sapiens, UniProt P26718); ligand binding, inhibitor, cellular TR-FRET displacement; added: human MICB-AF647 at KD): 1.3 µM
CC(C)C[C@@H]1NC(=O)[C@@H]2CCCN2C(=O)[C@@H](CS)NC(=O)[C@H](Cc2ccc(O)cc2)NC(=O)[C@@H](CCCNC(=N)N)NC(=O)[C@@H]([C@H](C)O)NC(=O)C(C)(C)NC(=O)[C@@H]2CCCN2C1=O  IC50 (blaNDM-1; enzyme activity, inhibitor, absorbance): 22.3 µM
CC(C)(C)Nc1ccc(C(=O)C=C(O)C(F)(F)C(F)(F)F)cn1  IC50 (Formate-nitrite transporter; L-lactate transport, inhibitor, fluorescence; yeast; pH 6.8, added: L-lactate 1 mM): 1.09 ± 0.252 µM
O=C(CCc1ccc(C(F)(F)F)cc1)N[C@H]1CCOC1=O  IC50 (lasR; reporter gene, antagonist; Escherichia coli, JLD271 with LasR plasmid; added: OdDHL 2 nM): no inhibition
O=C(C=C(O)C(F)(F)C(F)(F)F)c1ccc(NCC2CC2)nc1  IC50 (Formate-nitrite transporter; L-lactate transport, inhibitor, fluorescence; yeast; pH 6.8, added: L-lactate 1 mM): 0.064 ± 0.016 µM
CC(C)C[C@H]1NC(=O)[C@@H]2CCCN2C(=O)[C@H](C(C)C)NC(=O)[C@@H]2CCCN2C(=O)[C@@H](CS)NC(=O)[C@H](CCCCN)NC(=O)[C@H](CCCCN)NC(=O)[C@H](CC(=O)O)NC1=O  IC50 (blaNDM-1; enzyme activity, inhibitor, absorbance): 12.3 µM
CC(C)(COP(=O)(O)OP(=O)(O)OC[C@H]1O[C@@H](n2cnc3c(N)ncnc32)[C@H](O)[C@@H]1OP(=O)(O)O)[C@@H](O)C(=O)NCCC(=O)NCCSCC(=O)N[C@@H](CO)C(=O)NCC(=O)N[C@@H](CCCNC(=N)N)C(=O)N[C@@H](CCCCN)C(=O)N[C@@H](CCCCN)C(=O)N[C@@H](CCCNC(=N)N)C(=O)N[C@@H](CCCNC(=N)N)C(=O)N[C@@H](CCC(N)=O)C(=O)N[C@@H](CCCNC(=N)N)C(=O)N[C@@H](CCCNC(=N)N)C(=O)N[C@@H](CCCNC(=N)N)C(N)=O  IC50 (NAA40 (Homo sapiens, UniProt Q86UY6); enzyme activity, inhibitor, fluorescence): 0.337 µM
O=C(NC1CCN(c2ncnc3[nH]cnc23)CC1)c1cccc(NS(=O)(=O)c2ccc(C(F)(F)F)cc2)c1  IC50 (N6-adenosine-methyltransferase catalytic subunit, with METTL14 (METTL3, Homo sapiens, UniProt Q86U44); enzyme activity, inhibitor): > 10 µM
CCC(C)C1OC2(CCC1C)CC1CC(C/C=C(\C)C(OC3CC(OC)C(OC4CC(OC)C(O)C(C)O4)C(C)O3)C(C)/C=C/C=C3\COC4C(O)C(C)=CC(C(=O)O1)C34O)O2 (centres unmarked)  IC50 (Anoctamin-1 (ANO1, Homo sapiens, UniProt Q5XXA6, del476-501); inhibitor): 29.1 ± 2.7 µM
CC(C)C[C@H](NC(=O)[C@H](Cc1ccc(CN)cc1)NC(=O)[C@H](Cc1ccccc1)N=[N+]=[N-])C(=O)N[C@@H](CC1CCCC2CCCCC21)C(=O)[C@@]1(C)CO1 (some centres unmarked)  IC50 (PSMB7 (Homo sapiens, UniProt Q99436); inhibitor, competitive ABPP; Raji cell lysate; constitutive proteasome β2c): 0.349 µM
O=C(NCCCC[C@H](NS(=O)(=O)c1cccc(F)c1)C(=O)N[C@@H](Cc1c[nH]c2ccccc12)C(=O)NC1CCC1)c1cncc(OS(=O)(=O)F)c1  IC50 (SIRT5; inhibitor, fluorogenic; 24 h preincubation, His-tagged enzyme 150 nM, added: NAD+ 500 µM): 10 ± 7 µM
O=C(Nc1ccc(-c2ccccc2)cc1)N[C@H]1[C@H]([C@H](O)[C@H](O)CO)OC(C(=O)O)=C[C@@H]1O  IC50 (Sialidase-1 (NEU1, Homo sapiens, UniProt Q99519); enzyme activity, inhibitor): > 500 µM
Cc1ccc2c(n1)c(-c1cccc(S(C)(=O)=O)c1)c(C)n2C/C(F)=C/CN  IC50 (Cytochrome P450 2C9 (CYP2C9, Homo sapiens, UniProt P11712); enzyme activity, inhibitor; human liver microsomes; without NADPH preincubation): 0.22 µM
O=P(O)(O)Oc1cc(OP(=O)(O)O)c(OP(=O)(O)O)cc1OP(=O)(O)O  IC50 (Type II inositol 1,4,5-trisphosphate 5-phosphatase (Homo sapiens, UniProt P32019)): 6.3 ± 0.8 µM
CC1(C)OB(c2cnc3c(c2)CC(=O)N3)OC1(C)C  IC50 (Uncharacterized hydrolase SAUSA300_2518 (Staphylococcus aureus, UniProt Q2FDS6); enzyme activity, inhibitor): > 50 µM
